# Results of several laboratories.
# A part holds a random share of what one study measured.

# Block 1
# Target: Ras GTPase-activating protein-binding protein 1, full length (G3BP1, Homo sapiens, UniProt Q13283)
# Sequence of UniProt Q13283 (whole entry, looked up): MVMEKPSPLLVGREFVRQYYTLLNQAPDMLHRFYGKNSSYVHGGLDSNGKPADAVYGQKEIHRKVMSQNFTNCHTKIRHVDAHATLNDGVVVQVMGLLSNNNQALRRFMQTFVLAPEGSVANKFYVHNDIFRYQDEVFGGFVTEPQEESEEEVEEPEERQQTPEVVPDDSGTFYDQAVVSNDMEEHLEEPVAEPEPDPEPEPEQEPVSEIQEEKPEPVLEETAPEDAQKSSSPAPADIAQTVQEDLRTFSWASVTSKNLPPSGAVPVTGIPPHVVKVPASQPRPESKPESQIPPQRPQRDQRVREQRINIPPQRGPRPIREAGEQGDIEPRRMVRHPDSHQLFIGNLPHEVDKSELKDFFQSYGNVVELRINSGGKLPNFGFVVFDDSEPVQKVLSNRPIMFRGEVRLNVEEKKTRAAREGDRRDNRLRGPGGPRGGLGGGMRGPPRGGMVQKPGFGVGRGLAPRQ
# Technique: RNA Bind-n-Seq
# Form: RNA
# Sample: in vitro
# Tested at: 200 nM
# Setting: whole 134-nt RNA, ends assumed
# With: 150 mM KCl
# Baseline: input library
# Direction: higher = stronger binding
# Shared flanks, not repeated: GGGAGUUCUACAGUCCGACGAUC … UGGAAUUCUCGGGUGUCAAGG
Strand,log2 enrichment
CAAGUCCUGUGCUACACAUCGUAUGUACCGAAUCGGGAGGGAAAAAGGGAAAGGGAAAGUAUUAUGUUACGCCGUUCGGAUCUGCACUUC,0.578
AGUCCUGUGCUACACAUCGUAUGUACCGAAUCGGGAAAAAGGGAAAAAAAGGGAGGGAAAGUAUUAUGUUACGCCGUUCGGAUCUGCACU,0.0949
CCUCAAGUCCUGUGCUACACAUCGUAUGUACCGAAUCGGGGCCGGCCGGCCGGAAAGUAUUAUGUUACGCCGUUCGGAUCUGCACUUCCA,-0.374
CCUCAAGUCCUGUGCUACACAUCGUAUGUACCGAAUCGGCCGGCCGGGCCGGGAAAGUAUUAUGUUACGCCGUUCGGAUCUGCACUUCCA,-0.37
ACCAUGUAGGUGGGCAUCUUUGGGAAGUGGGGCAAGGGGGGGAUAGGGAGGGGGGUAACACUUUGGGAACAGGUGGUCCCAGGUCGUUUC,1.06
CUGUGCUACACAUCGUAUGUACCGAAUCGGGAAAAAAAGGGGAAAAAAAGGAAAAAAAGGGAAAGUAUUAUGUUACGCCGUUCGGAUCUG,-0.824
UGGGAGGUGGAUUUUGUUUAGUUUUUUAGCUCAUUUCCAGGGGUGGGAAUUUUUUUUUAAUAUGUGUCAUGAAUAAAGUUGUUUUUGAAA,0.138
CUGUGCUACACAUCGUAUGUACCGAAUCGGGAAAAAAAGGGGAAAAAAAGGGGAAAAAAAGGAAAGUAUUAUGUUACGCCGUUCGGAUCU,-0.632

# Block 2
# Organism: VSV pseudotyped with SARS-CoV-2 spike
# Effect on: viral infection
# Tested at: concentration not given
# Baseline: vehicle
Molecule,GFP-positive cells [%]
bleomycin sulfate,97.2
maraviroc,76.2
Sucralfate,78.8

# Block 3
# Target: Replicase polyprotein 1ab, main protease (rep, Severe acute respiratory syndrome coronavirus 2, UniProt P0DTD1)
# Effect on: enzyme activity
# Action: inhibitor
# Tested at: 20 µM
# Setting: primary screen
SMILES,inhibition
O=C(O)C1=CC(=C(c2ccc(O)c(C(=O)O)c2)c2ccc(O)c(C(=O)O)c2)C=CC1=O,95%
NC(Cc1cc(O)c(O)cc1O)C(=O)O (racemic),62.8%
Clc1ccc(C(OCCN2CCCCC2)c2ccccc2)cc1 (stereo not drawn),113%

# Block 4
# Target: Replicase polyprotein 1ab, polymerase (rep, Severe acute respiratory syndrome coronavirus 2, UniProt P0DTD1)
# Effect on: enzyme activity
# Action: inhibitor
# Tested at: 20 µM
SMILES,inhibition [%]
CCCOc1ccc2[nH]cc(C3=CCNCC3)c2n1,3.91
Cn1c(NCCN(CCO)CCCc2ccc([N+](=O)[O-])cc2)cc(=O)n(C)c1=O,-2.17
O=c1oc2c(O)c(O)cc3c(=O)oc4c(O)c(O)cc1c4c23,1.67
CC(C)C[C@H](NC(=O)CNC(=O)[C@H](Cc1ccc(O)cc1)NC(=O)[C@H](CO)NC(=O)[C@H](Cc1c[nH]c2ccccc12)NC(=O)[C@H](Cc1cnc[nH]1)NC(=O)[C@@H]1CCC(=O)N1)C(=O)N[C@@H](CCCNC(=N)N)C(=O)N1CCC[C@H]1C(=O)NCC(N)=O,25.8
COc1cc([S+](C)[O-])ccc1-c1nc2cccnc2[nH]1 (stereo not drawn),0.85
COc1ccc(C2CNC(=O)C2)cc1OC1CCCC1 (stereo not drawn),-2.89
CCOC(=O)C1=C(COCCN)NC(C)=C(C(=O)OC)C1c1ccccc1Cl (stereo not drawn),-4.98
C[C@H](NCc1ccc(OCc2cccc(F)c2)cc1)C(N)=O,-16
C#C[C@]1(OC(C)=O)CC[C@H]2[C@@H]3CCC4=CC(=O)CC[C@@H]4[C@H]3CC[C@@]21C,9.81
O[C@H]1CC[C@H](Nc2ncc3nc(Nc4c(F)cc(F)cc4F)n([C@H]4CCOC4)c3n2)CC1,-4.52

# Some of these lines once more (block 2):
Molecule,GFP-positive cells [%]
maraviroc,76.2
Sucralfate,78.8
